Assay results pooled from the literature.
Every numbered part comes from another study and shows a few of its results, in no order.

Sample 1
Target: Ras GTPase-activating protein-binding protein 1, RRM domain (G3BP1, Homo sapiens, UniProt Q13283)
UniProt Q13283, sequence (whole entry, looked up): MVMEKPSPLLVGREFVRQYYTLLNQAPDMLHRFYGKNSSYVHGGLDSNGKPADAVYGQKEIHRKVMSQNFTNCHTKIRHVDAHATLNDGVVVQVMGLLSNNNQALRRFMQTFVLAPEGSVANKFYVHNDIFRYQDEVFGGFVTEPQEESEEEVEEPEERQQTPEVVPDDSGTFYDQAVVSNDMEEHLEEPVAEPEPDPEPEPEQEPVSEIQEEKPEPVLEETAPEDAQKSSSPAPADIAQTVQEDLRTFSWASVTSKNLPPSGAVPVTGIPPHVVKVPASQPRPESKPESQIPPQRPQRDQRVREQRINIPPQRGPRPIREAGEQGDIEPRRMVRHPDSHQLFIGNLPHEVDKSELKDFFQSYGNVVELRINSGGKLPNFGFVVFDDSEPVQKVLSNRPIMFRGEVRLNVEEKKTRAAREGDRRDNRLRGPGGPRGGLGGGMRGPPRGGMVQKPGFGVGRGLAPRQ
Method: RNA Bind-n-Seq
Form: RNA
Medium: in vitro
Tested at: 1 µM
Notes: whole 134-nt RNA, ends assumed
Added: 150 mM KCl
Baseline: input library
Reading: higher = stronger binding
Strand | log2 enrichment
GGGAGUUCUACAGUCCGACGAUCUAACUUUAGAGGAGGAUCUCAUGGAUAUGGCAGUGGACGUGGAUUUGGGGAUGGCUAUAAUGGGUAUGGAGGAGGACCUGGAGGUGGCAAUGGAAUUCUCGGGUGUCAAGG | -0.828
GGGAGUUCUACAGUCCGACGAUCCUCAAGUCCUGUGCUACACAUCGUAUGUACCGAAUCGGAGGUUUGGAAAAAGGAAAGUAUUAUGUUACGCCGUUCGGAUCUGCACUUCCAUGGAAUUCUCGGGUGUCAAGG | -0.243
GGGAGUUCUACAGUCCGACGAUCGUGCUGGCUGGCCACGGUCACCUGUAUUCCCGCAUCCCAGGCCUGCUCAGCCCCCAUCCCCUGCUGCAGCUGAGCUACACGGCCACCGACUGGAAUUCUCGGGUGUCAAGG | -0.392
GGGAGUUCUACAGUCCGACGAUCUUCUGCACCUCUGCUACCUAAAGAAGACCCAAUCUUCACAUAUUUAUCUAAACGGUUAGGAAGGAGUAUAGAUGACAUAGGUCACCUCAUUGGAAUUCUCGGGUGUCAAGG | -0.0597
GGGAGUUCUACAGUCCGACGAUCUCCUGUGCUACACAUCGUAUGUACCGAAUCAAAUUUUUUUAAAUUUUUAAAUUUUUAAAAAAGUAUUAUGUUACGCCGUUCGGAUCUGCAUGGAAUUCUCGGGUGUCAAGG | -0.235
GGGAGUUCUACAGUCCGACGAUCGUCCUGUGCUACACAUCGUAUGUACCGAAUCGGGGAAAAAGGGGAGGGGUUUUUGGGGAAAGUAUUAUGUUACGCCGUUCGGAUCUGCACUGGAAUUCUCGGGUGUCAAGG | 0.9
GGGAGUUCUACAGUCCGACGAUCUAACUUUAGAGGAGGAUCUGAUGGAUAUGGCAGGGGACGUGGAUUUGGGGAUGGCUAUAAUGGGUAUGGAGGAGGACCUGGAGGUGGCAAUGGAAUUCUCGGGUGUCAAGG | -0.252
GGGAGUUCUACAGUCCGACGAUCUCCUGUGCUACACAUCGUAUGUACCGAAUCGGGGUGGGGAAAAAAAGGGGAAAAAGGGGAAAGUAUUAUGUUACGCCGUUCGGAUCUGCAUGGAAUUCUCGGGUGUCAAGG | 0.801
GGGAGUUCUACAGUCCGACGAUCUCCUGUGCUACACAUCGUAUGUACCGAAUCGUGUGUGUGUGUGUGUGUGUGUGUGUGUGUAAAGUAUUAUGUUACGCCGUUCGGAUCUGCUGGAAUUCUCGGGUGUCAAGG | 0.0407
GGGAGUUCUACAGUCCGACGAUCUUUCCAGCAGUACCAGCUCCAGCCAGGAUCACCCUCUCUACUCUGGGCACCCAUCCCUUCCACUAAGUGGUGCUAUUGCUGCUUUUGCCUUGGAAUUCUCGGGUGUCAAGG | 0.227

Sample 2
Target: RING finger protein unkempt homolog, zinc fingers 1-6, GST-SBP tag (UNK, Homo sapiens, UniProt Q9C0B0, residues 30-357)
UniProt Q9C0B0, sequence (30-357, looked up): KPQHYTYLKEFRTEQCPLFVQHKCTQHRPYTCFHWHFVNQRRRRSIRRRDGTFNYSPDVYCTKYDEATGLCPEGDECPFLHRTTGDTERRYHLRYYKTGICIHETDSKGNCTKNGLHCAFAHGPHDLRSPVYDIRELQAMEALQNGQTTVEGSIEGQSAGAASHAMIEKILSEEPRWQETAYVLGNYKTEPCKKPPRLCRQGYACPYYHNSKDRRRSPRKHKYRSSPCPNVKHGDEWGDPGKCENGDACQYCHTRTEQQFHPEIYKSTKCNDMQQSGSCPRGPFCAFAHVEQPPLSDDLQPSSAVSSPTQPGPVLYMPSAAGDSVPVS
Method: RNA Bind-n-Seq
Form: RNA
Medium: in vitro
Tested at: not given
Notes: RNA with constant flanks, human-mouse chimeric sites, ends assumed
Baseline: input RNA pool
Reading: higher = stronger binding
Strand | bound/input enrichment [ratio]
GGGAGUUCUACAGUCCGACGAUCCUCAGAGAUGUGGCAUAUCAGUAUGUGAAAAAGGGGGCUCGAAUUUAUGUGGAAGGGAAAAUAGACUAUGGCGAGUACAUGGAUAAAAACAAUGUGAGGCGGCAAGCAACAACAAUCAUACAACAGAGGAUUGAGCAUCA | 0.51
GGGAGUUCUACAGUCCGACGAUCCUGAAAAACACAGAUAUCAAAGUUGUUGAUUUUGGAAGUGCAACGUAUGACGACGAACAUCACAGUACUUUGGUGUCUACCCGGCACUACAGAGCUCCCGAGGUCAUUUUGGCUUUAGGUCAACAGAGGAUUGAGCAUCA | 0.45
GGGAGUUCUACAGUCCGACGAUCGGCCUGGGACCGUCCUGGGCUAGUACAAUAGCGGCAGGUGGAGGCUCGAGAGGAAAGUUUGUUAGUGGAGGCAGUGGUAGAGGCCGUCAUGUACGGUCUUUACACGAAUAGAUGUGUUCUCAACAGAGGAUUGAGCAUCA | 0.582
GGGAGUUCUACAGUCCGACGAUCAAAGUGGACUAUGGCGAAUACAUGGAUAAAAACAAUGUGAGGCGGCAAGCAACAACAAUCAUAGCUGAUAACAUUAUAUUUCUGAGUGACCAGACAAAAGAAAAGGCAUAGAACGGAUGACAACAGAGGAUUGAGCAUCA | 2.34
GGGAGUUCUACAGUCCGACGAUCCCCUCCCCGGGCCACCCACCCCUCCCGGCUCCCCGCCGAGAUCCAGGUUUCUUCUUAUUUCAUAGCAAAUAAGAAAAAUGUUCUACGCACAUUUUGUUCUCAGUAAACGAGGGCCUCUGGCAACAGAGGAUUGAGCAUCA | 0.661
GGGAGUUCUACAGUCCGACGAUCCUUAAUGUUAAUAUUUUUGAAUAAAUGUAAAACCAUGGUCUGCUUUUGGUACAACACGCAUUAAUAAAAGGUUAAGUAAGUUUUGUUACUGAAGUACUAUUUAACAUCUCAGAAAAAAACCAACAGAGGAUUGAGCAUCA | 0.264
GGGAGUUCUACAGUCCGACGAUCAAAGCCCAAGUAUUUUGAAAAAACUCGAACAGAUUUGACAAGGGUAGCCAGCUUGGAGUCUAGCAACUUGCCAAUGUGUUUACCAAUCUGGGGGCUUUGUUUUUCUUUCUUCUUUCAAAUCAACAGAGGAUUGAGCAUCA | 0.24
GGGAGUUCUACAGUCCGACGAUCAGCACAACCCCAGCAAAGCUAAGAAAUCCUUGCACAAGUGAACAAAACUGCACCAGCCCAUUUAGCUACAAAAAUGUGCUCAGUCUUACUGACAGAGGAGAGUUUUUCAAUGAACUUGUUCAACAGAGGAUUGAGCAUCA | 1.91
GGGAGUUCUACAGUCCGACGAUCCUGUGACCACAAGAUCCUACCUGAGUGGCAGCUGAAGUUGACUCCCUCUCCUUGCCUGCCUAGUUUCCCACUGCCCCUUGAGUCCACAGUGUCGGCUGAGAUGUUGCCUCUGCACGGUUCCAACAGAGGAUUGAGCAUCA | 0.301
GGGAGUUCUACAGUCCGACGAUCCUGAAAAACACAGAUAUCAAAGUUGUUGAUUUUGGAAGUGCAACGUAUGAUGAUGAACAUCAUAGUACUUUGGUGUCUACCCGGCACUACAGAGCUCCCGAGGUCAUUUUGGCUUUAGGUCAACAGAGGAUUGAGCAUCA | 0.457
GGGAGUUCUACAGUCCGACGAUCAAAGAAUGGAUAGAGUGUGCACACGGGAUCGGUGGGACCCGGGCGAAAAAGGAGUGCAAGAUAGAGUUCGAUGACUUCGAAGAGUGCUUGCUUCGGUACAAAACGAUGAGGCGAAUGCAUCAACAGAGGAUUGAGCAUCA | 0.567

Sample 3
Target: Histone acetyltransferase KAT6A, winged helix 1, GST fusion (KAT6A, Homo sapiens, UniProt Q92794, residues 1-85)
Method: protein binding microarray
Form: double-stranded DNA, one strand shown
Medium: in vitro
Tested at: not given
Notes: 8-mer, flanks averaged, mean of 2 arrays, mostly near background
Baseline: not given
Reading: higher = stronger binding
Residues (chain): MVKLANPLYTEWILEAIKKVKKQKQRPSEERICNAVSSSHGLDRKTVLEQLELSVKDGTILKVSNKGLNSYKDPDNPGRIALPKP
Strand | E-score
AAAAATAG | -0.163
GTACAACA | -0.171
GTTAGCAA | -0.14
ATTGTGTG | -0.179
CCGGGTAG | 0.0869
AACGGTCC | 0.127
GCAAGCCA | -0.129
AGAATACT | -0.254
GCAAAGGA | 0.0653
CCATAGTC | -0.0888
TATGAAGA | -0.188
AGTTTTCC | 0.169
GGGAAATA | -0.107
CTGGCAAG | -0.219
ATCATGCC | -0.181
GCAGGAGA | -0.037
ACGAGTAT | -0.0294
AATCTTGG | -0.105
ACACCCCT | -0.0985
AGTGATTA | 0.00337
AAAATAGA | -0.187
CGTTCCGC | 0.372
ACACACTC | -0.152
AATGCTGC | -0.147
CAGAGTGC | -0.0768

Sample 4
Target: RNA binding protein fox-1 homolog 2, RRM domain, GST-SBP tag (RBFOX2, Homo sapiens, UniProt O43251-10, residues 100-194)
Method: RNA Bind-n-Seq
Form: RNA
Medium: in vitro
Tested at: 365 nM
Notes: natural RNA segment, single round, ends assumed
Baseline: no-protein control
Reading: higher = stronger binding
Target sequence (chain): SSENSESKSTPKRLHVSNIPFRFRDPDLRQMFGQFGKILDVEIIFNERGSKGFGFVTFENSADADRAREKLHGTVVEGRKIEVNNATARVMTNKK
Strand | RBNS enrichment (R)
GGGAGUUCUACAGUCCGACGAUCAAUCUUUACAACAUCCAUCGUCACAAAAGAGUGUUAUACAUUUAAUCCACAGGGCAUAGUUUUCUUUAUACCUUCUGUUAAUCAUCUUUCCUUAAUACUUUCUUAUCUGUUGGAAUUCUCGGGUGCCAA | 0.284
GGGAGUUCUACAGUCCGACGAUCUCACCCCUCCUCUGUCUGCACCUCUAAACCCCAGAGCCCUGGAGGGGAGAGACUGGACUCUAGCCAGGCAGUCUUGUGCCGGCACGCACAGCUGCACGCACGCAUGCAAGUGGAAUUCUCGGGUGCCAA | 9.38
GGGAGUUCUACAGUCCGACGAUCGCAGUUAAAUGGACCUAGAUUUUGUUUUGCACUAAAGUUUCUGUGACUUAAUAAAGUUCUGUUAACCAACAGAUCUGGCCUUGUGUCUCUUUGAUACCUCAGCCAGAAGAUGGAAUUCUCGGGUGCCAA | 0.313
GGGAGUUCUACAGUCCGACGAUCAGGCUUUCAUUUCACUUCAGAUUCAGCGGUGGGAGAGUGAGCUAGUACUGUCCUAACCCUGGCUUUUCAGUUAAUGUUUCCAUCUGUGAAGCUUGGAAACACAGCUGGGAUGGAAUUCUCGGGUGCCAA | 0.554
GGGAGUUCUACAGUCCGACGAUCGGCCUUGGGCAAGUCACUCCCCCUCUCUGAGCUUCAGUAUCCUCCUGUCACAGGAGGGAGUUGGGCUAGAUCAUCUUUAAGGUAGGUUCUAGCUUUGACAUCAUCUUGGGUGGAAUUCUCGGGUGCCAA | 0.327
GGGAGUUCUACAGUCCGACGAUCUUUUGUUUUGGUGGUUGUUUUGGAAAAACAGUUUAUAAACUGAUUUUUGUAGUUUUGGUAUUUAAAGCAAAAAAACGAAAAACAAAAAACAAAAACAAACCUUUUGGUAAUGGAAUUCUCGGGUGCCAA | 0.477
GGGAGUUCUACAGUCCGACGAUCGCUCAGCUUGAAGACAAGUCACAGGUGGGCAAGUAUCACUGCCUGAACAGGGCUGUUAAAGGUCCAUGCUCAAAUACAAGGGAGACAACAGAUAGGACAGGACAGGGCUCUGGAAUUCUCGGGUGCCAA | 0.443
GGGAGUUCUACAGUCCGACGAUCAAUUUUAAAAAGCUACUAGUGAGAAACCAAAUGAUAGGUUGUAGAGCCUGAUGACUCCAAACAAAGCCAUCACCCGCAUUCUUCCUCCUUCUUCUGGUGCUACAGCUCCAUGGAAUUCUCGGGUGCCAA | 0.326
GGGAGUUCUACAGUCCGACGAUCCCUUUUCCCACAGGGAAAGAAAAGUUGGAUCACUAGUGGCCAGCAUCCCCAGAGUUCCGUUAGUAAACUUACUUCAUAUGUCCCCUGUCUUCCUCCAUCUGAGAAGUGGCUGGAAUUCUCGGGUGCCAA | 0.78

Some of these lines once more (sample 3):
Strand | E-score
GCAAAGGA | 0.0653
GTACAACA | -0.171
TATGAAGA | -0.188
